# Measurements pooled from the literature.
# Lines come from different studies, so protocols differ. ± marks the error that the study gave.
Structure (SMILES),cell line,test,test system,conditions,IC50
C=CCOCO[C@H](C(=O)NC[C@@H]1C[C@@H](OC)C(C)(C)[C@@H](C[C@@H](COC)OC)O1)[C@@]1(OC)CC(=C)[C@@H](C)[C@@H](C)O1,Renca,"cell viability, sulforhodamine B",,"72 h, 37 °C, together with: H2O2 100 µM",2710 ± 313 nM
O=C1CS/C(=N\N=C\c2cccc3cc4ccccc4nc23)N1c1ccccc1,PATU,"cell proliferation, MTT",,48 h,16800 ± 2640 nM
COc1ccc(C(O)=CC(=O)c2ccc(C(C)(C)C)cc2)cc1.[Ru+2].c1ccc(-c2ccccn2)nc1.c1ccc(-c2ccccn2)nc1,DU-145,cytotoxicity,,dark,93 nM
COc1ccc2c(c1)OC1=C(C(=O)CC(C)(C)C1)C2C1=C(O)CC(C)(C)CC1=O (stereo not drawn),3T3-L1 pre-adipocytes,"cell viability, MTT",,72 h,100 to 1000 µg/mL
CN1CC[C@@H](COc2cnc(C#N)cc2-c2ccn3nc(NC(=O)C4CC4)cc3c2)C1,human monocyte-derived macrophages,TNF release,,"3 h, together with: LPS",940 nM
CC(=O)c1cnc(N)nc1N1CC[C@H]1c1nn2ccc(Cl)c2c(=O)n1-c1ccccc1,basophils,"CD63 upregulation, inhibitor",human whole blood,"PI3K delta response, together with: IgE",37 nM
CCOc1cncc(-c2ccc(NC(=O)C3(c4ccnc(NS(=O)(=O)C5CC5)n4)CCOCC3)nc2)n1,WSUDLCL2,"cell growth or viability, ATP luminescence",,72 h,1560 nM
Nc1cc2cccnc2c2ncccc12.[Cl-].[Cl-].[Ru+2].c1cnc2c(c1)ccc1cccnc12.c1cnc2c(c1)ccc1cccnc12,HFF-1,"cell viability, MTT",,"1 h preincubation, then 48 h, together with: blue light",41100 ± 1040 nM
CCOC(=O)c1nc2c3nsnc3ccc2n(CC)c1=O,HEK293-A GFP-LC3B,LC3B puncta formation,,"22 h, together with: chloroquine, torin1",> 20000 nM
Cc1ccc([N+](=O)[O-])cc1S(=O)(=O)N(C)/N=C/c1cnc2ccc(Br)cn12,Malme-3M,"cytotoxicity, MTS",,,116 nM
COc1cc(/C=C(\C#N)C(=O)c2ccsc2)cc(OC)c1OC,HEK293-A GFP-LC3B,LC3B puncta formation,,"22 h, together with: chloroquine, torin1",> 20000 nM
CCOC(=O)/C=C1\S/C(=N\N=C\c2cccc3cc4ccccc4nc23)N(c2ccc(OC)cc2)C1=O,PATU,"cell proliferation, MTT",,48 h,> 50000 nM
CC1(C)CC(=O)C(C2C3=C(CC(C)(C)CC3=O)Oc3ccc(Br)cc32)=C(O)C1 (stereo not drawn),3T3-L1 pre-adipocytes,"cell viability, MTT",,72 h,> 1000 µg/mL
Cn1ncc(-c2ccc3c(=O)[nH]nc(CN)c3c2)c1-c1c(F)c(Cl)cc(OC2CC2)c1C#N,NCI-H2122,"cell viability, inhibitor, CellTiter-Glo",,"120 h, baseline-subtracted",3210 nM
N#Cc1c(N)nc2c(c1-c1ccc(CO)o1)CCc1cc(O)ccc1-2,HH,"cell growth or viability, ATP luminescence",,,10600 nM
CCN(C(=O)c1cc(F)ccc1Oc1nncnc1N1CCC2(C1)CN([C@H](CCCN(C)CCOC)C(C)C)C2)C(C)C,"MV4-11 (KMT2A-AF4, FLT3-ITD)","inhibitor, QuantiGene multiplex, refers to: MEIS1 mRNA",,,38 ± 7 nM
CCOC(=O)c1ccc(NC(=O)Nc2ccc(C(F)(F)F)cc2)cc1,LAD2,degranulation,,,2770 nM
C=CC(=O)N1CCCC(n2c(=O)c3ncccc3n(Cc3ccc(Oc4ccccc4)cc3)c2=O)C1 (stereo not drawn),WSUDLCL2,"cell growth or viability, MTT",,72 h,100 nM
N#Cc1c(N)nc2c(c1-c1ccc[nH]1)Cc1cc(O)ccc1-2,HH,"cell growth or viability, ATP luminescence",,,7530 nM
C[C@H]1CN(C2COC2)CCN1c1ccc(Nc2cc(-c3ccnc(N4CCn5c(cc6c5CC(C)(C)C6)C4=O)c3CO)cn(C)c2=O)nc1,TMD8,"cell growth or viability, ATP luminescence",,96 h,8.4 nM
CC(C)c1ccc(N(C)c2ccc3c(c2)OCC[C@H]3CNc2cnccc2C(=O)O)cc1,UMUC3,"cell growth or viability, ATP luminescence",,7 days,39.5 nM
CCOC(=O)/C=C1\S/C(=N\N=C\c2cccc3cc4ccccc4nc23)N(c2cccc(OC)c2)C1=O,PATU,"cell proliferation, MTT",,48 h,> 50000 nM
O=C(CCl)c1ccccc1Nc1cccc(C(F)(F)F)c1,HEK293A LATS1/2 double knockout,"TEAD reporter gene, GTIIC luciferase",,24 h,7010 nM
C1=[N+]2CCCC[N+]3=Cc4ccc5[n]4[Au-]23[n]2c1ccc2-c1nc2ccccc2nc1-5.F[P-](F)(F)(F)(F)F,SN12C,,,NCI60 five-dose screen,3200 nM
CC1(C)CC(=O)C2=C(C1)Oc1ccc3ccccc3c1C2c1c(C(=O)O)[nH]c2ccccc12 (stereo not drawn),3T3-L1 pre-adipocytes,"cell viability, MTT",,72 h,74.6 ± 2.78 µg/mL
CC(C)CN1C(=O)CS/C1=N\N=C\c1cccc2cc3ccccc3nc12,PATU,"cell proliferation, MTT",,48 h,25500 ± 4100 nM
CNS(=O)(=O)Nc1nccc(Cc2c(C)c3ccc(Oc4ncccc4F)cc3oc2=O)c1F,OE21,cell viability,,7 days,47.2 nM
CCn1nc(Cl)c2c1-c1cnc(N)c(c1)O[C@H](C)c1cc(F)ccc1-c1nn(C)cc1C2,Ba/F3 EML4-ALK variant 1 L1196Q,cell viability,,,9.75 nM
C#CCNC(=O)[C@@]1(C)C(=O)CC[C@]2(C)[C@H]3C(=O)C=C4[C@@H]5[C@@H](C)[C@H](C)CC[C@]5(C)CC[C@@]4(C)[C@]3(C)CC[C@@H]12,HDF,"cell growth or viability, MTT",,24 h,> 200000 nM
COc1ccc(-c2c(C#N)sc(C(=O)NC3(O)C(=O)c4ccccc4C3=O)c2-c2ccc(OC)cc2)cc1,HEK293-A GFP-LC3B,LC3B puncta formation,,"22 h, together with: chloroquine, torin1",> 20000 nM
O=C(NCc1cc(F)cc(F)c1)[C@@]1(O)CCN(c2ccc3[nH]ccc3c2)C1=O,HCC827,cell growth or viability,,,> 30000 nM
Cc1cnc(Nc2ccc3c(c2)CCN(C(=O)/C=C/C(=O)c2ccc(Cl)cc2)C3)nc1-c1cnn(C(C)C)c1,MDA-MB-231/ADR doxorubicin-resistant,"cell viability, MTT",,,370 ± 20 nM
COc1ccc2c(c1)C(n1nnc3ccccc31)C1=C(CCCC1=O)O2 (stereo not drawn),3T3-L1 pre-adipocytes,"cell viability, MTT",,72 h,> 100 µg/mL

# A few entries again:
Structure (SMILES),cell line,test,test system,conditions,IC50
CCOC(=O)c1nc2c3nsnc3ccc2n(CC)c1=O,HEK293-A GFP-LC3B,LC3B puncta formation,,"22 h, together with: chloroquine, torin1",> 20000 nM
CNS(=O)(=O)Nc1nccc(Cc2c(C)c3ccc(Oc4ncccc4F)cc3oc2=O)c1F,OE21,cell viability,,7 days,47.2 nM
